Assay results from different studies.
Parts stem from different laboratories: compare values within a part only.

Block 1 — technique: RNA Bind-n-Seq; form: RNA; matrix: in vitro; concentration: 20 nM; setting: 6-mer, flanks averaged, single round; together with: 150 mM KCl; relative to: input library; reading: higher = stronger binding
Target: TAR DNA-binding protein 43, full length, His tag (TARDBP, Homo sapiens, UniProt Q13148, residues 1-414)
`GUAAUU` — result for “6-mer enrichment (R)”: 0.649.
For `UGGGAG`, “6-mer enrichment (R)” read 4.44.
`GUCCUC` — result for “6-mer enrichment (R)”: 0.62.
For `CCCUUU`, “6-mer enrichment (R)” read 0.694.
`CUCAGA`: “6-mer enrichment (R)” 0.623.
`GGCAUA` — result for “6-mer enrichment (R)”: 0.997.
Under “6-mer enrichment (R)”, `AACAUU` is recorded as 0.598.
For `UCCGUU`, “6-mer enrichment (R)” read 0.574.

Block 2 — technique: protein binding microarray; form: double-stranded DNA, one strand shown; matrix: in vitro; concentration: not given; relative to: not given; reading: higher = stronger binding
Target: Histone acetyltransferase KAT6A, both winged helices, GST fusion (KAT6A, Homo sapiens, UniProt Q92794, residues 1-181)
Setting: 8-mer, flanks averaged, mean of 2 arrays, mostly near background
Target sequence (chain): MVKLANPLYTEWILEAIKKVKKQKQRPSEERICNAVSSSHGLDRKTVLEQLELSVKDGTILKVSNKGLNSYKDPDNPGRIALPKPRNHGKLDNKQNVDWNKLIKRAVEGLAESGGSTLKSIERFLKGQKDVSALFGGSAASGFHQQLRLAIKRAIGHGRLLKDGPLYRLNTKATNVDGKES
`AGGGGAGA` gave an E-score of -0.16.
For `CACCTGCC`, the E-score was -0.0966.
For `CTTGCTAA`, the E-score was -0.215.
For `CAAAGTGC`, the E-score was -0.122.
`CCAAGTGG` has an E-score of -0.132.
The E-score of `ATCCCCCC` is reported as -0.185.
For `CCACATAA`, the E-score was 0.107.
For `AAGGCCAA`, the E-score was -0.219.
`GAAGAGAA` gave an E-score of -0.107.
For `ACTGGGGG`, the E-score was -0.202.
With `AGCACCGG` the E-score was 0.155.
`TACCGCGA` has an E-score of 0.314.
The E-score of `CAAATGTA` is reported as -0.104.
`GACGCCAA` gave an E-score of -0.00148.
`CAGAGGCC` gave an E-score of -0.112.
For `ATTTGGCC`, the E-score was -0.0128.
The E-score of `AGCGTGGG` is reported as -0.0161.
`CGCTAAAG` gave an E-score of 0.184.
`AGTATCCG` gave an E-score of 0.0907.
`ACTGTCCA` has an E-score of -0.0981.

Block 3 — technique: Sort-seq; refers to: YFP reporter; matrix: E. coli; setting: PhoQ-PhoP variant library; together with: 10 µM Mg2+; relative to: high Mg2+ state; reading: higher = stronger signaling
Substance: PhoQ, residues 284 288 289 292 302 303 TVTVVA
PhoP, residues 12 14 15 18 19 LHHYF (Escherichia coli, UniProt P23836) — fold induction: 7.33.
PhoP, residues 12 14 15 18 19 VGHWL (Escherichia coli, UniProt P23836) — fold induction: 6.03.
PhoP, residues 12 14 15 18 19 TPWTL (Escherichia coli, UniProt P23836) — fold induction: 3.8.
For PhoP, residues 12 14 15 18 19 NFFVT (Escherichia coli, UniProt P23836): fold induction read 9.68.

Block 4 — technique: RNA Bind-n-Seq; form: RNA; matrix: in vitro; concentration: not given; relative to: input RNA pool; reading: higher = stronger binding
Target: RING finger protein unkempt homolog, zinc fingers 1-6, GST-SBP tag (UNK, Homo sapiens, UniProt Q9C0B0, residues 30-357)
Setting: RNA with constant flanks, human and mouse sites, ends assumed
Residues (chain): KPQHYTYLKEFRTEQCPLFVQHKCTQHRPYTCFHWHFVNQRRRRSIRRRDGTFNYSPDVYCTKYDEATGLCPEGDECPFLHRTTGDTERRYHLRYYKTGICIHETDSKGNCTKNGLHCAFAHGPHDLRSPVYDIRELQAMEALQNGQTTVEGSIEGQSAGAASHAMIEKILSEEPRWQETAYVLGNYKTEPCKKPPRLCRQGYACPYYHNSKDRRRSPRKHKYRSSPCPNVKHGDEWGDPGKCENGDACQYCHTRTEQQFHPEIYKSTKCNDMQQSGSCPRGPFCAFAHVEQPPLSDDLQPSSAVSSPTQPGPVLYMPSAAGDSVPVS
The bound/input enrichment of `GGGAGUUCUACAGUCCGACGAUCAACCCCGUGCUUCAGAUAUUACAGGAUACACAAAUACUGAAGCAACUUAGAUAAUUGAAGAAAAUACAUCUGCCUUCAAAUAGAGUGCUUAGAGUUAGAUUUGUGAUCAGUGUCUUCUAGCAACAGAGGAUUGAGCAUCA` is reported as 21.5 ratio.
With `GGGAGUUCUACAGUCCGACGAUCACUGUGAAGGAAGAAAAAAGUUGGCAUUUCUUGGUCCUCCGUUCAUAACACAAAGCAGAGUAGUAUUUUUAUAUUUAAAUGUUAAAAACAAAAAAGUUAUAUAUAUAUGGAUGUGUGGAUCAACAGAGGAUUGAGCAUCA` the bound/input enrichment was 4.48 ratio.
For `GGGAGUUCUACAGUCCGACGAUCGUAAGAGGUGAGAAGGAAUCUUUAGAUCUUCGAAAGGAAAAAGAGACACUUGAGAAAAAACUUAGAGAUGCAAAUAAGGAACUUGAGAAAAACACUAACAAAAUUAAGCAGCUUUCUCAGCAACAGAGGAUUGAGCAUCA`, the bound/input enrichment was 0.985 ratio.
The bound/input enrichment of `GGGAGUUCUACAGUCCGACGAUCGACAGUGAAAAUGCUGAACCAGAUCUGGACGACAAUGAGGAUGAGGAGGAGCCUGCCGUAGAAAUUGAACCUGAGCCAGAGCCUCAGCCUGUGACCCCAGCCCCACCACCCGCCAAGAAGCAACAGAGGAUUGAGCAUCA` is reported as 0.298 ratio.
The bound/input enrichment of `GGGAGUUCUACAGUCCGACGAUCGUAAGAGAGUUCAUGAAGGAUACUGAUUCCAUAAAUUUAUAUAAGAAUAUGAGAGAAACAUUAGUUUAUCUUACUCAUCUGGAUUAUGUAGAUACGGAAAUAAUAAUGACUAAGAAACUUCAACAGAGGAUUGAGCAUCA` is reported as 0.271 ratio.
With `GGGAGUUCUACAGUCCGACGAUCGACAUCCAAGAUGAGAUGGGCAGACACGAAGUGGGCCACAUCGACAAUUCCAUGAAGAUCCCGCUGAAUAAUGGAGCCGGCUGCCGCUUCGAGGGCCAGUUCAGCAUCAACAAGGUUCCCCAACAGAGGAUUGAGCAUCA` the bound/input enrichment was 0.102 ratio.
With `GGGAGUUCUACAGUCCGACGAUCCUGGGAAUUGGGCCAGGACCAGUAGAACUAAUUGAUGAAGUUACUGGCCACCUAAAACUUUACUAGAUAAGCUUUUGCUUGAUGGAGAUUCUGUCCGAAGACUAUGGAGCCUGUCAGUAACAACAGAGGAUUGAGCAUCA` the bound/input enrichment was 0.392 ratio.
For `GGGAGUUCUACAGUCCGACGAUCCUGAGGAACAAUCUCCGCAGCAUAGAGUGGGAUCUGGAGGACCUCGAUGAAACCAUCAGCAUAGUUGAAGCAAAUCCUAGAAAAUUCAACUUGGAUGCAACUGAAUUGAGCAUAAGAAAACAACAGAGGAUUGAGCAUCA`, the bound/input enrichment was 0.438 ratio.
`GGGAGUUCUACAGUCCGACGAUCUGUACAACAUGUCUUUGUAAUUUAUAGAAACAAGUCUAGGUGUUGAUACCUUGUGGUCUAAUAGAUGUGGAUACCAUUCAUUUUACUUGAAAUUUUGUUGUCUACUUUAAGUGUAUUUGCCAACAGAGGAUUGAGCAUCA` gave a bound/input enrichment of 0.322 ratio.
With `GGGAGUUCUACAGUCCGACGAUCGCAAGCCCCAAGGCUGAGCCCAUCUGGGAGCUCCCUACCCGUGCACCCAGGCUCUCUAUUGGGGACCUGGACUUUUCAGAUCUAGGGGAGGAUGAAGACCAGGACAUGCUGAAUGUAGAGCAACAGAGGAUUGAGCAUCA` the bound/input enrichment was 0.371 ratio.
With `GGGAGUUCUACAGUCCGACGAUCGGGCUGCUUUACGCUCUGAGGGUCCCGCUGAGGCUGUGUGACAACGUGACAGCGGUGACAGGGUUUUUAAGUUCACUGACACCCAAGUUCUAUGUGGCACUUACAGGGACAUCUUCUUUGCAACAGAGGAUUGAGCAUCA` the bound/input enrichment was 0.0788 ratio.

A few entries again (block 3):
PhoP, residues 12 14 15 18 19 TPWTL (Escherichia coli, UniProt P23836) — fold induction: 3.8.
For PhoP, residues 12 14 15 18 19 NFFVT (Escherichia coli, UniProt P23836): fold induction read 9.68.
PhoP, residues 12 14 15 18 19 VGHWL (Escherichia coli, UniProt P23836) — fold induction: 6.03.
PhoP, residues 12 14 15 18 19 LHHYF (Escherichia coli, UniProt P23836) — fold induction: 7.33.
